Experimental data from different studies.
Compare with care: the assays were run in different laboratories. ± gives the spread as reported.
Cell line: HEK293

| SMILES | read-out | method | concentration | time | setting | quantity | result |
| --- | --- | --- | --- | --- | --- | --- | --- |
| CN1C(=O)[C@@H]2NC(=O)[C@@H]3NC(=O)[C@@H](c4ccc(O)cc4)NC(=O)[C@H](NC(=O)C(NC(=O)CCCCCN)c4ccc(O)cc4)Cc4c[nH]c5cc(ccc45)-c4cc3cc(c4O)Oc3ccc(cc3)C[C@H]1C(=O)N[C@@H](C(=O)O)c1ccc(O)c(c1)Oc1ccc2cc1 (stereo partly shown) | cell viability | CellTiter-Glo |  | 48 h | 1% DMSO | IC50 | unstable |
| CC(C)C[C@H](NC(=O)[C@H](Cc1ccc(O)cc1)NC(=O)[C@@H]1CCCN1C(=O)[C@H](CCCNC(=N)N)NC(=O)[C@@H]1CCCN1C(=O)[C@H](CCCCN)NC(=O)[C@H](CC(=O)O)NC(=O)[C@@H]1CCCN1C(=O)[C@H](CCCNC(=N)N)NC(=O)C1(N)CCCCC1)C(=O)N1CCC[C@H]1C(=O)N[C@@H](CCCNC(=N)N)C(=O)N1CCC[C@H]1C(=O)N[C@@H](CCCNC(=N)N)C(=O)N1CCC[C@H]1C(=O)N1CCC[C@H]1C(=O)N[C@@H](CCCNC(=N)N)C(=O)N1CCC[C@H]1C(=O)N[C@H](C(=O)N[C@@H](CCCNC(=N)N)C(=O)N[C@@H](CSCc1ccc(CSC[C@H](NC(=O)[C@H](CCCNC(=N)N)NC(=O)[C@@H](NC(=O)[C@@H]2CCCN2C(=O)[C@H](CCCNC(=N)N)NC(=O)[C@@H]2CCCN2C(=O)[C@@H]2CCCN2C(=O)[C@H](CCCNC(=N)N)NC(=O)[C@@H]2CCCN2C(=O)[C@H](CCCNC(=N)N)NC(=O)[C@@H]2CCCN2C(=O)[C@H](CC(C)C)NC(=O)[C@H](Cc2ccc(O)cc2)NC(=O)[C@@H]2CCCN2C(=O)[C@H](CCCNC(=N)N)NC(=O)[C@@H]2CCCN2C(=O)[C@H](CCCCN)NC(=O)[C@H](CC(=O)O)NC(=O)[C@@H]2CCCN2C(=O)[C@H](CCCNC(=N)N)NC(=O)C2(N)CCCCC2)C(C)C)C(=O)NN)cc1)C(=O)NN)C(C)C | cytotoxicity |  |  |  | highest tested 125 µg/mL | IC50 | > 125 µg/mL |
| CCCC[N+]1=c2cc3c4cc2[O][Mn-2]1(=[C]=O)(=[C]=O)(=[C]=O)[n+]1ccc(cc1)C(=O)Oc1ccccc1OC(=O)c1cc[n+](cc1)[Mn-2](=[C]=O)(=[C]=O)(=[C]=O)([O]3)[N+]=4CCCC | cell growth | MTT |  | 48 h | LED photolysed 1 h | IC50 | > 50 µM |
| CN1C(=O)[C@@H]2NC(=O)[C@@H]3NC(=O)[C@@H](c4ccc(O)cc4)NC(=O)[C@H](NC(=O)C(N)c4ccc(O)cc4)Cc4c[nH]c5cc(ccc45)-c4cc3cc(c4O)Oc3ccc(cc3)C[C@H]1C(=O)N[C@@H](C(=O)O)c1ccc(O)c(c1)Oc1ccc2cc1 (stereo partly shown) | cell viability | CellTiter-Glo |  | 48 h | 1% DMSO | IC50 | unstable |
| CC(C)OC(=O)[C@H](CO)NCc1cc(Cl)c(OCc2cccc(-c3ccccc3)c2Br)cc1OCc1cccnc1 |  | MTT |  |  |  | IC50 | > 10 µM |
| CC(=O)OC[C@H]1O[C@@H](n2cc(CSc3nc4ccccc4n3Cc3cn([C@@H]4O[C@H](COC(C)=O)[C@@H](OC(C)=O)C(OC(C)=O)[C@H]4OC(C)=O)nn3)nn2)[C@H](OC(C)=O)C(OC(C)=O)[C@@H]1OC(C)=O (stereo in doubt) |  | MTT | 15.6 ppm |  |  | cytotoxicity | 4.09% |
| CCCC[N+]1=c2cc3c4cc2[O][Mn-2]1(=[C]=O)(=[C]=O)(=[C]=O)[n+]1ccc(cc1)C(=O)OCCOCCOC(=O)c1cc[n+](cc1)[Mn-2](=[C]=O)(=[C]=O)(=[C]=O)([O]3)[N+]=4CCCC | cell growth | MTT |  | 48 h | LED photolysed 1 h | IC50 | 45.2 ± 5.13 µM |
| Cc1ccc(C(C)C)cc1.Cc1ccc(C(C)C)cc1.Cc1ccc(C(C)C)cc1.Cc1ccc(C(C)C)cc1.O=S(=O)(O)C(F)(F)F.O=S(=O)(O)C(F)(F)F.O=S(=O)(O)C(F)(F)F.O=S(=O)(O)C(F)(F)F.c1ccc2c3c4ccccc4c(c2c1)-c1cn(nn1)-c1cc[n+](cc1)[Ru-]1[O]C2=[O+][Ru-]([O]C2=[O+]1)[n+]1ccc(cc1)-n1cc(nn1)-c1c2ccccc2c(c2ccccc12)-c1cn(nn1)-c1cc[n+](cc1)[Ru-]1[O]C2=[O+][Ru-]([O]C2=[O+]1)[n+]1ccc(cc1)-n1cc-3nn1 | cell growth or viability | MTT |  | 24 h |  | IC50 | > 40 µM |
| CCCC[N+]1=c2cc3c4cc2[O][Mn-2]1(=[C]=O)(=[C]=O)(=[C]=O)[n+]1ccc(cc1)C(=O)NCCNC(=O)c1cc[n+](cc1)[Mn-2](=[C]=O)(=[C]=O)(=[C]=O)([O]3)[N+]=4CCCC | cell growth | MTT |  | 48 h | LED photolysed 1 h | IC50 | 45.4 ± 6.38 µM |
| CCN(C(=O)c1cc(F)ccc1Oc1nncnc1N1CCC2(C1)CN([C@H](CCCN(C)CCOC)C(C)C)C2)C(C)C | cell growth or viability |  |  | 72 h |  | GI50 | > 10 µM |

A few entries again:
| SMILES | read-out | method | concentration | time | setting | quantity | result |
| --- | --- | --- | --- | --- | --- | --- | --- |
| CC(=O)OC[C@H]1O[C@@H](n2cc(CSc3nc4ccccc4n3Cc3cn([C@@H]4O[C@H](COC(C)=O)[C@@H](OC(C)=O)C(OC(C)=O)[C@H]4OC(C)=O)nn3)nn2)[C@H](OC(C)=O)C(OC(C)=O)[C@@H]1OC(C)=O (stereo in doubt) |  | MTT | 15.6 ppm |  |  | cytotoxicity | 4.09% |
